Assay results of several laboratories.
Numbered parts are unrelated; each lists some results of a single study. “And” joins repeats or separate records; there may be more than shown. Changes are numbered by the printed parent chain.
UniProt Q04771, sequence (whole entry, looked up): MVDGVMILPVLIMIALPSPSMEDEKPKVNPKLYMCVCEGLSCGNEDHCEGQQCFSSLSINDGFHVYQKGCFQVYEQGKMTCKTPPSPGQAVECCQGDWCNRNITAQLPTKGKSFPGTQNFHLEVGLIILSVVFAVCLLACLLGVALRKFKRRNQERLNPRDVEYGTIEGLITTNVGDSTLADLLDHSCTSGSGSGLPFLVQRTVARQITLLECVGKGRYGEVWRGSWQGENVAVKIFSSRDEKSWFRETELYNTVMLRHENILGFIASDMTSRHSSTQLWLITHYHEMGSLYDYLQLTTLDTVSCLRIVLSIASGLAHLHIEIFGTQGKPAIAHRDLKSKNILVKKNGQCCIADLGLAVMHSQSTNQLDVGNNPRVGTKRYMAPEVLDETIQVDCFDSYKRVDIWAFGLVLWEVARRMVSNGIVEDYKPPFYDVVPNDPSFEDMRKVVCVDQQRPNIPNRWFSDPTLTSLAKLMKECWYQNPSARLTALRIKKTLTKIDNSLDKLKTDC
UniProt Q6P3R8, sequence (whole entry, looked up): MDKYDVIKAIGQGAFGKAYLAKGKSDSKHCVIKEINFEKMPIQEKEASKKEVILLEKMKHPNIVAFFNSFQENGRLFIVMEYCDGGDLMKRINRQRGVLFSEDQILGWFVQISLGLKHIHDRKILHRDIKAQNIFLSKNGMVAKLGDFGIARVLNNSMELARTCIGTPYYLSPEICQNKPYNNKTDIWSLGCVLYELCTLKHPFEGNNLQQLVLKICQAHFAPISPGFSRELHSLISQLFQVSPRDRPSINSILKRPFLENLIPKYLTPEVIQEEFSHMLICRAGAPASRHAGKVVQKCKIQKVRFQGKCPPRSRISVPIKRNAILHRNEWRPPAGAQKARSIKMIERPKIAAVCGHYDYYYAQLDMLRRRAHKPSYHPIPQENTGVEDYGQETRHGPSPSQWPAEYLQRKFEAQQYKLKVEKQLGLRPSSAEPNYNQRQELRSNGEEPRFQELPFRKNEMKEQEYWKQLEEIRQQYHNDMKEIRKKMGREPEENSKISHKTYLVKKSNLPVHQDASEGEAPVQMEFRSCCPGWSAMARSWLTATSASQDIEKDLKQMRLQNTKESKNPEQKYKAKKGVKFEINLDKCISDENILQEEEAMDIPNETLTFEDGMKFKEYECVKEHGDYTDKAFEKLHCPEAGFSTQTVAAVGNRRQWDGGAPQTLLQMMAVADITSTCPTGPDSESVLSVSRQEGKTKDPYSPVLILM
UniProt P42336, sequence (whole entry, unmodified, looked up): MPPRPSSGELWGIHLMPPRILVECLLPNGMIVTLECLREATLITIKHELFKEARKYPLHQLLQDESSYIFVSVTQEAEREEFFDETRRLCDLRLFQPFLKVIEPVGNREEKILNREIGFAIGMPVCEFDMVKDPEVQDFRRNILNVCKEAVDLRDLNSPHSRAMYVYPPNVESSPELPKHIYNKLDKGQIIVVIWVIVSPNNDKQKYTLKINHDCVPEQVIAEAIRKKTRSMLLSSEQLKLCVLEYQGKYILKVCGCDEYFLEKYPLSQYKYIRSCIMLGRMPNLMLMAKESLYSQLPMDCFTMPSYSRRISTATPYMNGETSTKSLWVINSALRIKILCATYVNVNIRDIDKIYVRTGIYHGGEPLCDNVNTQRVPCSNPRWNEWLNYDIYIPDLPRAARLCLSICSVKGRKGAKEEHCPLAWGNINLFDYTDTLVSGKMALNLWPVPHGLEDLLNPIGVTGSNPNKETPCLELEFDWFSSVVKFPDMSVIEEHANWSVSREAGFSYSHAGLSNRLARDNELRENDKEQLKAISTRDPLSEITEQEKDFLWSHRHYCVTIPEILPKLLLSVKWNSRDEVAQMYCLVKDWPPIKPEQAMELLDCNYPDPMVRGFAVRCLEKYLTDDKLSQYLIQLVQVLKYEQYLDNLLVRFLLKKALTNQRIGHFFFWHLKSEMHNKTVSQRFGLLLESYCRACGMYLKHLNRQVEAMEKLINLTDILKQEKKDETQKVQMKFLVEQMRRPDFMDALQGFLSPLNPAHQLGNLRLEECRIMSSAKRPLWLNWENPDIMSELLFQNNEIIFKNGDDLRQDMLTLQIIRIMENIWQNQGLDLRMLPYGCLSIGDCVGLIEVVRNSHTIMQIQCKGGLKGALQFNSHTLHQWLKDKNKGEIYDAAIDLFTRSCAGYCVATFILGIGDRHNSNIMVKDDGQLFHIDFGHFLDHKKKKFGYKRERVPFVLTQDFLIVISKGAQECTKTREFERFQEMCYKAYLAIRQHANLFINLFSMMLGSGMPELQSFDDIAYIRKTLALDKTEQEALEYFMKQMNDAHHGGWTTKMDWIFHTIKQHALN
UniProt P53355, sequence (whole entry, looked up): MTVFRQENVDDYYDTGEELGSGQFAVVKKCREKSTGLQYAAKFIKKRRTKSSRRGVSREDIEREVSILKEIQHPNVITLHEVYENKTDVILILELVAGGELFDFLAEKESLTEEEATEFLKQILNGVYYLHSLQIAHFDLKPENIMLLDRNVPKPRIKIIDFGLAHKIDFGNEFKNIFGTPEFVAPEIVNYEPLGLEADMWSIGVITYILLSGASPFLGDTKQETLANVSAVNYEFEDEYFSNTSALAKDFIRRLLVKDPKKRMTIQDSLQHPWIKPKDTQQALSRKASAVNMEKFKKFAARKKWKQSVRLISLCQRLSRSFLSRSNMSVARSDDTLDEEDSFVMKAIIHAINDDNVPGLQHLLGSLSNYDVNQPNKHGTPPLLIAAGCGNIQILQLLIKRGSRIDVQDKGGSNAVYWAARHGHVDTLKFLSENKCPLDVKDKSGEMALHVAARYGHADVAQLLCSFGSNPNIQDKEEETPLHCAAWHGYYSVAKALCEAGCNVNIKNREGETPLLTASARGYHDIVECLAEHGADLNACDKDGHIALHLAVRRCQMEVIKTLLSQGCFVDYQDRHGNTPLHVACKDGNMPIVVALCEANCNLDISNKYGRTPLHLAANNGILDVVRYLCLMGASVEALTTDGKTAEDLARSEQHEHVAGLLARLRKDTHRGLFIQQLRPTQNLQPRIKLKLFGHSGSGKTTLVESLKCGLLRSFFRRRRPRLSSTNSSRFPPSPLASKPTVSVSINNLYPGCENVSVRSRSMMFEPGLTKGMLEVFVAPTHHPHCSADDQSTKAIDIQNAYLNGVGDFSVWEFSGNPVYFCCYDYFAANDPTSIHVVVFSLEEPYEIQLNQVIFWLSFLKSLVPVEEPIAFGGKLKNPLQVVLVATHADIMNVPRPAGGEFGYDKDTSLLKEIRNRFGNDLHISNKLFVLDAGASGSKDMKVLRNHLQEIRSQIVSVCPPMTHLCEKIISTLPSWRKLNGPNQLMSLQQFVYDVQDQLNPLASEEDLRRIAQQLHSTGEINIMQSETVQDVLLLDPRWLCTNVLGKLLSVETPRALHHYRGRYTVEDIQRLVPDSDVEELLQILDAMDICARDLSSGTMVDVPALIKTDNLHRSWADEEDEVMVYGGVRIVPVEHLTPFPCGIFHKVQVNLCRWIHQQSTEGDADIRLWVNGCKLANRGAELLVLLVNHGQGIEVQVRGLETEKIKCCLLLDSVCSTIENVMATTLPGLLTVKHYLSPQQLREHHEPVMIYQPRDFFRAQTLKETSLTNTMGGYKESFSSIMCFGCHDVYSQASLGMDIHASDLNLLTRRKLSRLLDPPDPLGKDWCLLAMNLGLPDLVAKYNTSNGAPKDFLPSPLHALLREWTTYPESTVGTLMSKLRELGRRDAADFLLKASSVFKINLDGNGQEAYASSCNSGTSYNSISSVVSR
UniProt O14920, sequence (whole entry, looked up): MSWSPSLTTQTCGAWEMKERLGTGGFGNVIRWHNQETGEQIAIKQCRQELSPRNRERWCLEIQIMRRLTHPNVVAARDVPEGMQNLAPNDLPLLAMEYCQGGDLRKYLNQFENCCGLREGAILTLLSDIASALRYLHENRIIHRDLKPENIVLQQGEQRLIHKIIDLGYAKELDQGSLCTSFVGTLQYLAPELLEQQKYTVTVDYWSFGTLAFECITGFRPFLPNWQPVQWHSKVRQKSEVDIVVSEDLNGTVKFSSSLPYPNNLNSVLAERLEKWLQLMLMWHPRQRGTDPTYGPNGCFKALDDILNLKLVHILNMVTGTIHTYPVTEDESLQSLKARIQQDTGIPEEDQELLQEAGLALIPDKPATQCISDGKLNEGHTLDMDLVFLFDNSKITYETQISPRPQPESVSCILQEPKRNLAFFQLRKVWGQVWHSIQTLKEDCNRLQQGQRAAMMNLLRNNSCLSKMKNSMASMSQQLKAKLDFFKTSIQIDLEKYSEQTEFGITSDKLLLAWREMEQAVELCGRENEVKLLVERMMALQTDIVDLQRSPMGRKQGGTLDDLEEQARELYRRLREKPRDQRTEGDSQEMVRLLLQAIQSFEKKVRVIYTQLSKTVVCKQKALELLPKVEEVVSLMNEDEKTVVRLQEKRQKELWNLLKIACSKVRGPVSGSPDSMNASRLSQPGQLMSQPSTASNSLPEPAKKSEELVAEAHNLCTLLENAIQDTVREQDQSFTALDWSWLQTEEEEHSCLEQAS
UniProt P51956, sequence (whole entry, looked up): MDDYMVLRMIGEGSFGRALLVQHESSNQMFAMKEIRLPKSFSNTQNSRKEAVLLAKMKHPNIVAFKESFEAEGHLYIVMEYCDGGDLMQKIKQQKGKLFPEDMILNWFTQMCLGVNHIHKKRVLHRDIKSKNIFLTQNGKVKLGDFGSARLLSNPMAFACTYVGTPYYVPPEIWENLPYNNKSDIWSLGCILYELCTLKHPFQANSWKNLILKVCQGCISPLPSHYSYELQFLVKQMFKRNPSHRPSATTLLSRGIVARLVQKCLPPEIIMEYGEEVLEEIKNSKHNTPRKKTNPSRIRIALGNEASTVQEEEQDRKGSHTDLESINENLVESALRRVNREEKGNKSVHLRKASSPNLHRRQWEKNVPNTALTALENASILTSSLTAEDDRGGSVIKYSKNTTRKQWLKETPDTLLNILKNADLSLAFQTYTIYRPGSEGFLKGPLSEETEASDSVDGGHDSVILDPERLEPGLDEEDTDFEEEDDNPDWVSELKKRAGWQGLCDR

Block 1
SMILES: O=C(N[C@H]1CCCCC/C=C\C2C[C@@]2(C(=O)O)NC(=O)[C@@H]2C[C@@H](Oc3ccncc3)CN2C1=O)OC1CCCC1 (stereo partly shown)
Method: competition with immobilised ligand
Tested at: 1 µM
target | assay | remaining binding
IKBKB (Homo sapiens, UniProt O14920) | binding | 91%
MAP3K3 (Homo sapiens, UniProt Q99759) | binding | 89%
DAPK1 (Homo sapiens, UniProt P53355) | binding | 83%
ACVR1 (Homo sapiens, UniProt Q04771) | cell-free assay | 100%
Tyrosine-protein kinase JAK2, JH1 (JAK2, Homo sapiens, UniProt O60674) | binding | 100%
PIK3C2G (Homo sapiens, UniProt O75747) | binding | 71%
GRK7 (Homo sapiens, UniProt Q8WTQ7) | binding | 100%
NEK3 (Homo sapiens, UniProt P51956) | binding | 100%
FLT3 (Homo sapiens, UniProt P36888, D835V/ITD) | binding | 100%
EIF2AK1 (Homo sapiens, UniProt Q9BQI3) | binding | 100%
PIK3CA (Homo sapiens, UniProt P42336, M1043I) | binding | 84%
NEK5 (Homo sapiens, UniProt Q6P3R8) | binding | 91%

Block 2
Change: R111Y
Target: ABI1, truncated, D143A, DHFR fusion (Arabidopsis thaliana)
Method: DHFR PCA, deep sequencing
Medium: yeast
Notes: methotrexate growth selection, single substitutions
Relative to: wild-type fitted maximum
Direction: higher = stronger binding
Starting sequence: PYL1, truncated, DHFR fusion (Arabidopsis thaliana); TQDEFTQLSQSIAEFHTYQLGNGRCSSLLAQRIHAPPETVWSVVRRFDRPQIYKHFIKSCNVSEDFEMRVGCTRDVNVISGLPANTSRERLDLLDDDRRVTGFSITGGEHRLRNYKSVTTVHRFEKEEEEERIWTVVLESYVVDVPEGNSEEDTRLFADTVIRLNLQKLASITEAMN
setting | relative binding score [%]
with: (+)-ABA 4.8 µM | -0.959
with: (+)-ABA 0 µM | 1.49
with: (+)-ABA 710 µM | 70
with: (+)-ABA 0.0091 µM | -3.74
with: (+)-ABA 0.39 µM | -5.64
with: (+)-ABA 58 µM | 30.8

Block 3
Organism: Plasmodium berghei
Mode: inhibitor
Cells: Huh-7
Strain: liver stage
Tested at: 10 µM
Time: 24 h
Relative to: untreated control
Compound | infection rate [%]
CO[C@]12C[C@@H](COC(=O)c3cncc(Br)c3)CN(C)[C@@H]1Cc1cn(C)c3cccc2c13 | 98.1
CCC1(C)CC(=O)NC1=O (stereo not shown) | 88.2
Cc1c(Nc2ncccc2C(=O)O)cccc1C(F)(F)F | 76.8

Block 4
Host: human
Medium: microsomes or S9
Tested at: 2 µM
Time: 0.5 h
SMILES | remaining compound [%]
O=C(NCC1=COCCO1)NC1CCc2c1ccc(Cl)c2Cl (stereo not shown) | 27.3
C=CCn1cc(Cl)cc/c1=N\C=C(/C#N)C(=O)OCC | 54.4
CCN(CC)Cc1ccc2c(c1)CN(C(=O)Nc1ccc(OC)cc1)CCO2 | 35.2

Mixed results
SMILES | cell line | assay | setting | how to read | quantity | result
CC(C)(C#N)c1cc(Cn2cncn2)cc(C(C)(C)C#N)c1 | mouse MPNST tumor cells | high-content nuclear imaging, refers to: cell number | 10 µM, 12 h, mean of 2 replicates | relative to: plate mean, higher = more cells | nuclei count | 0.868 z-score and 1.36 z-score and -0.257 z-score

Some of these lines once more (block 3):
Compound | infection rate [%]
CCC1(C)CC(=O)NC1=O (stereo not shown) | 88.2
Cc1c(Nc2ncccc2C(=O)O)cccc1C(F)(F)F | 76.8
